Assay results from different studies.
Every numbered part comes from another study and shows a few of its results, in no order. Changes are numbered by the printed parent chain.

Study 1 — target: CEBPB, bZIP domain (human); technique: DHFR protein complementation; matrix: yeast; relative to: wild-type JUN-FOS pair; direction: higher = stronger binding
Setting: single substitutions, most at no-binding floor
Starting sequence: JUN, bZIP domain (human); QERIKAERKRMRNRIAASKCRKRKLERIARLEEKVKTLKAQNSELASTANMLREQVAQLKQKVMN; partner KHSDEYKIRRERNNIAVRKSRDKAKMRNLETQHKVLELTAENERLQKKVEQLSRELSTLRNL
`S47L` gave a binding fitness of -1.29 natural log.
With `S43A` the binding fitness was -1.11 natural log.
`K34C` gave a binding fitness of -1.34 natural log.
For `E32Q`, the binding fitness was -1.37 natural log.
The binding fitness of `Q55A` is reported as -1.33 natural log.
The binding fitness of `V56W` is reported as -1.45 natural log.
`K36P` gave a binding fitness of -1.52 natural log.
The binding fitness of `Q41P` is reported as -1.48 natural log.
With `Q55P` the binding fitness was -1.56 natural log.
For `K39T`, the binding fitness was -1.17 natural log.
With `A49C` the binding fitness was -1.44 natural log.
The binding fitness of `T37H` is reported as -1.27 natural log.
For `I28C`, the binding fitness was -1.3 natural log.
With `L52P` the binding fitness was -1.5 natural log.
For `A40V`, the binding fitness was -1.34 natural log.
With `M51Y` the binding fitness was -1.25 natural log.

Study 2 — target: CCND1, cyclin fold, Cln2 fusion (human); technique: yeast growth competition, sequencing; matrix: yeast; setting: weak parent motif; relative to: not given; direction: higher = stronger binding
Starting sequence: CDAN1 docking peptide (human); RGARSQLFPPTEA; partner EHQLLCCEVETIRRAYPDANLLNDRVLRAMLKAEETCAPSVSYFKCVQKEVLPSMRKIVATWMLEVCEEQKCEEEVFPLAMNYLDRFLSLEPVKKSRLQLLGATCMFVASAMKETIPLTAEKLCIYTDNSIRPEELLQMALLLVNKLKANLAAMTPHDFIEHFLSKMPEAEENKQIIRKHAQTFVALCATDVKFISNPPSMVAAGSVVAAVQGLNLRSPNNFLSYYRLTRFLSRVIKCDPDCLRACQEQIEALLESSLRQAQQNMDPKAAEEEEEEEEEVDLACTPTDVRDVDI
Under “normalised enrichment score”, `F8A` is recorded as 0.00894.
For `Q6A`, “normalised enrichment score” read -0.197.
For `S5A`, “normalised enrichment score” read 0.149.
For `G2A`, “normalised enrichment score” read -0.115.
For `R1A`, “normalised enrichment score” read -0.065.

Study 3 — technique: DHFR PCA, dose-response; matrix: yeast; setting: Hill fit, mean, not affinity; with: (+)-ABA, dose series; direction: lower = more sensitive
Target: ABI1, truncated, D143A, DHFR fusion (Arabidopsis thaliana, UniProt P49597)
Starting sequence: PYL1, truncated, DHFR fusion (Arabidopsis thaliana, UniProt Q8VZS8); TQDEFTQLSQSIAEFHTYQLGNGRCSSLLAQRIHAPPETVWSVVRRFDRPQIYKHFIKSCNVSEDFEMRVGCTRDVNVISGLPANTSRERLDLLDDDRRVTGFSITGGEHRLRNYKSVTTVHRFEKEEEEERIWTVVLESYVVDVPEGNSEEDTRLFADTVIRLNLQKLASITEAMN
For `V142W`, the ABA EC50 was 73.1 µM.
For `S26K`, the ABA EC50 was 12 µM.
With `N114F` the ABA EC50 was 439 µM.
With `E151Q` the ABA EC50 was 4.74 µM.
The ABA EC50 of `S27F` is reported as 196 µM.
The ABA EC50 of `T73E` is reported as 1.47 µM.
`S42C` gave an ABA EC50 of 10.2 µM.
`R69M` gave an ABA EC50 of 2.4 µM.
The ABA EC50 of `R49D` is reported as 38.8 µM.
The ABA EC50 of `I162N` is reported as 161 µM.
The ABA EC50 of `H122Q` is reported as 68.6 µM.
The ABA EC50 of `Q167N` is reported as 1.83 µM.
With `T160R` the ABA EC50 was 22.2 µM.
The ABA EC50 of `D153H` is reported as 41.2 µM.
The ABA EC50 of `R46L` is reported as 18.7 µM.

Study 4 — technique: protein-binding microarray; form: double-stranded DNA, one strand shown; matrix: in vitro; tested at: not given; direction: higher = stronger binding
Target: Transcription factor SOX-2, HMG box (SOX2, Homo sapiens, UniProt P48431, residues 19-118)
Sequence of UniProt P48431 (19-118, looked up): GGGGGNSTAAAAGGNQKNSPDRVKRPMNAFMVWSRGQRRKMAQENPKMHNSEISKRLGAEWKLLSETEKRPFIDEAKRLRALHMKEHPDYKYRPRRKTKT
Setting: k-mer, scored over probes, only values ≥0.25
The E-score of `CATTCAA` is reported as 0.345.
For `TCAATCA`, the E-score was 0.261.
The E-score of `CAAATAA` is reported as 0.258.
The E-score of `AAGACAA` is reported as 0.339.
The E-score of `TTAATAA` is reported as 0.275.
With `AATAATA` the E-score was 0.442.
For `GCAATTA`, the E-score was 0.302.
For `AACCATT`, the E-score was 0.267.
`ACATAAT` has an E-score of 0.364.

A few entries again (study 1):
With `S43A` the binding fitness was -1.11 natural log.
`K34C` gave a binding fitness of -1.34 natural log.
For `E32Q`, the binding fitness was -1.37 natural log.
The binding fitness of `Q55A` is reported as -1.33 natural log.
